Measurements collected from several papers.
Numbered parts are unrelated; each lists some results of a single study.

Series 1
Target: RNA binding protein fox-1 homolog 2, RRM domain, GST-SBP tag (RBFOX2, Homo sapiens, UniProt O43251-10, residues 100-194)
Method: RNA Bind-n-Seq
Form: RNA
Medium: in vitro
Concentration: 365 nM
Notes: natural RNA segment, single round, ends assumed
Reference: no-protein control
Direction: higher = stronger binding
Shared flanks, not repeated: GGGAGUUCUACAGUCCGACGAUC … UGGAAUUCUCGGGUGCCAA
Residues (chain): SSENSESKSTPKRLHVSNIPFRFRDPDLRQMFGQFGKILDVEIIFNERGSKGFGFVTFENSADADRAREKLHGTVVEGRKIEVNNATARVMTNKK
For `UGAAAUAAUAGAGCGAGCACCCAUUCCAAAGCUUUAUUACCAGUGACGUUGUUGCAUGUUUGAAAUUCGGUCUGUUUAAAGUGGCAGUCAUGUAUGUGGUUUGGAGGCAG`, “RBNS enrichment (R)” read 23.3.
`CUAAAAUGCCCAUGUUUACCUGUAUUGACCAAAGCUUUCAGUUGUUCUUCAUUCUGUGCUCAGGAUUGAAAUGCUGCGUAGACGUUGUGUUGUUAGUGCUGGGCACGGAU` — result for “RBNS enrichment (R)”: 0.414.
`AGGAAACUCCGCUGCCGACCCUGCCUGAGCGCGGGAGCCUGAGGACCGGGUGGAGGCGGUGGGGACCCAGCCGCGCGCCGGGAGCGCUCCCCGGAAUGAGCCGCCCCACC` — result for “RBNS enrichment (R)”: 21.2.
Under “RBNS enrichment (R)”, `CAGUAGGUUGGGCUGCUCAUUUGCCUUCGGAUGACAUUAUGUAAAUAAACGAAUGUCACACCCACAGCUGGCUCUGUUACUCUCCUAAGCCGAGGGGUGGUGGGCCGGAG` is recorded as 0.35.
For `UCUCCUUUGGGAUACUUAUGAACCUCUCACUAAUGUCCUGUGGAGAACAUUUUGGGAAACACUAUGUUAGAUAGUUCUUUAAGGAGACAAAACGGUAAUGAACAGAUAGC`, “RBNS enrichment (R)” read 0.71.
`UUUAUUUAACCCUGGACUCCGUUUACACAGACAAAGUGACAUCAGAAGGCUGAGCACUUAUCUGGAUCAUUUGGUCAGUUUGGUAAUUCCUGCUCCACACCCCUAUUUUC` — result for “RBNS enrichment (R)”: 1.28.
Under “RBNS enrichment (R)”, `ACAUGUAUUAUUUGAUACUAAAUUUUCAAUUAUUACUUCAAAAUAAGAGUCUGAGGAUUUCUUCUUACUGGCGUUCUUAAAGGUCUCUAAAAUUAAAGAACAAGAUGUGG` is recorded as 0.681.
Under “RBNS enrichment (R)”, `CUUAACUUUCUUGUAUGCCUCUAGUAAUUUCAGAGAUUAAAUAUUGCUUUAAACUGUGAUACUUUGAUUUGCUAGAUUGACAAAACUGAUACUAAUAUAAUUAAGUUCAU` is recorded as 0.556.
For `GGUGGGCCUUGGAGGAGGGCGGGAAAGGAGCGACCAACAUGGCGGUCCUCCACCCCUCAGCGACACCCACCGCCCGAGAAACUACAGACAAUGGCCACAAGUUUGGCGUC`, “RBNS enrichment (R)” read 0.21.
`AGAAUAAGCCUUUUAAGGUAAACCUCAAAAUUAUCAUUUUAUGGUAAUACUGACCAUUUUAGUCCCCUAGGUUUGACAUGGGAGAUAGUGACUACACUGGUGUCUGACUU`: “RBNS enrichment (R)” 3.33.
For `GCCGUGACUGGUUUUCUGUCCCCAAGAACGUGACGUUCGUGAUGUCCUGCCCGCCGGGAGUCUUUCCCCACACCCCAGCCAUCGCCGCCCGCUCCCAGGAGGCCAGGGCA`, “RBNS enrichment (R)” read 0.436.
Under “RBNS enrichment (R)”, `CCUAUCUCAGCGGAAUUCUAAAUCUCAGUUCUGGCUUAAAAGUUUUAAAAAUAAGAUAUAUAUACAUAUAUAUAUCCAAUACAAUGAACUUUGAAGAUUUCUCAGAAAAC` is recorded as 0.463.

Series 2
Target: Sal-like protein 4, full length isoform A (SALL4, Homo sapiens, UniProt Q9UJQ4, residues 1-1053)
UniProt Q9UJQ4, sequence (whole entry, looked up): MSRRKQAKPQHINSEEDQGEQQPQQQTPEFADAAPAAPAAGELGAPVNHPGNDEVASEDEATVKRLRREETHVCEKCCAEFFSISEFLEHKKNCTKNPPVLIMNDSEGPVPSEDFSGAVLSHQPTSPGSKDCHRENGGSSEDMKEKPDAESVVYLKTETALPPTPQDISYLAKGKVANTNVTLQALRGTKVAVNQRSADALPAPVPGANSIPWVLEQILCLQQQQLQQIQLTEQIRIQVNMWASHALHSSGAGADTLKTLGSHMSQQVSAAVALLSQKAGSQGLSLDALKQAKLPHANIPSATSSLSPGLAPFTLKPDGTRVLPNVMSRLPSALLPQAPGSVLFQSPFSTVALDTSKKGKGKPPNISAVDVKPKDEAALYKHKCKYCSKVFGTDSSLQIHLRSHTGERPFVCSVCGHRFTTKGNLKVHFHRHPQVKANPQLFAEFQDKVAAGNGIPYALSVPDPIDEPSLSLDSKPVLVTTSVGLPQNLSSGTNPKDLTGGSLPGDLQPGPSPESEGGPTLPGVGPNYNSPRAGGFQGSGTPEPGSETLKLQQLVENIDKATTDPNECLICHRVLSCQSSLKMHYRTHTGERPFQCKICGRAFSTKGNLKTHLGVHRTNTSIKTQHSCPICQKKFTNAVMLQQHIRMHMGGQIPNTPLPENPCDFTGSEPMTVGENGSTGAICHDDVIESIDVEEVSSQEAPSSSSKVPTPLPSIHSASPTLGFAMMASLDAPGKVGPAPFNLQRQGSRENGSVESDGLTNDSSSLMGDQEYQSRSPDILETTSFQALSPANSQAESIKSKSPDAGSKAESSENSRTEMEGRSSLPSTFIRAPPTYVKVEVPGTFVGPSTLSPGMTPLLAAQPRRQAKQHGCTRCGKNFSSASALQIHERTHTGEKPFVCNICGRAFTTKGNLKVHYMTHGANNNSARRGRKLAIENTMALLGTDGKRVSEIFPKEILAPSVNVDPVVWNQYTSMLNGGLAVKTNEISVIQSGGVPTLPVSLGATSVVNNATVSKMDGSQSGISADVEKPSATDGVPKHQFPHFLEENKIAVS
Method: universal PBM
Form: double-stranded DNA, one strand shown
Medium: in vitro
Concentration: 600 nM
Notes: 8-mer, flanks averaged, mean of replicates
Direction: higher = stronger binding
`TAATCTCA` has an E-score of 0.188.
With `CCGACTCA` the E-score was -0.0917.
With `ACGACTAC` the E-score was -0.0785.
For `AACTGTCG`, the E-score was 0.0311.
With `CACGACGC` the E-score was -0.309.
`CGGCTCGC` gave an E-score of -0.146.
`AACCACCA` has an E-score of -0.0355.
`ACTTTATA` gave an E-score of 0.361.
`GGAACCCC` gave an E-score of -0.372.
With `GCGAATAA` the E-score was 0.189.
With `AGGTCCTA` the E-score was -0.0443.

Series 3
Target: Interferon regulatory factor 7, full length, phosphomimetic (IRF7, Homo sapiens, UniProt Q92985, residues 1-503, S471D/S472D/S475D/S476D/S477D/S483D/S484D/S487D)
Method: protein-binding microarray
Form: double-stranded DNA, one strand shown
Medium: in vitro
Concentration: 2200 nM top
Notes: 60-bp whole probe
With: salmon DNA 0.4 mg/ml
Reference: random background probes
Direction: higher = stronger binding
Shared flanks, not repeated: GCCTAGCAC … GTCTTGATTCGCTTGACGCTGCTG
Residues (chain): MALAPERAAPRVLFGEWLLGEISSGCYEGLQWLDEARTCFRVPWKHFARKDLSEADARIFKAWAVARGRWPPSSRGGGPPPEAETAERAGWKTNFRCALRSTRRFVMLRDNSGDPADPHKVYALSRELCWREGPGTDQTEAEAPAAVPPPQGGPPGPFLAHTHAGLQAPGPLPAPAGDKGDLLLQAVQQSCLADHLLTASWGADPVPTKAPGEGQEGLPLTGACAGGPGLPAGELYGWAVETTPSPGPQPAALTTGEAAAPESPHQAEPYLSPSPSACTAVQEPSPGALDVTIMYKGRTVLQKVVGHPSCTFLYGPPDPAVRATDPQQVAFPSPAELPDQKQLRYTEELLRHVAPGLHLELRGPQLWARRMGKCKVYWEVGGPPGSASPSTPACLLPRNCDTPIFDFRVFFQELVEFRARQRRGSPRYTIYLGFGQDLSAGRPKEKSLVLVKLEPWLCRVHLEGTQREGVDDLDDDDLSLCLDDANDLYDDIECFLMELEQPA
`GAAATTTTTTTTCTAACTAAGTGCTAG`: “fitted relative affinity” 0.107 z-score.
For `TTAGATATCAGTCTGGATTAGTGCTAG`, “fitted relative affinity” read -0.225 z-score.
`GACGGTTTCGGTTCGGGGACGTGCTAG`: “fitted relative affinity” 13.4 z-score.
Under “fitted relative affinity”, `GTATATATAATATATATTCATGTGCTA` is recorded as 0.25 z-score.
`GACGGTCTCCGTTTCCTGACGTGCTAG` — result for “fitted relative affinity”: 1.61 z-score.
Under “fitted relative affinity”, `GACGGTTTCGGATATCGGGACGTGCTA` is recorded as 3.57 z-score.
`TCAACTCAGCACTTTGGCACTGTGCTA`: “fitted relative affinity” -0.326 z-score.
For `TTAAGTATCGGGACTGGGTTAGTGCTA`, “fitted relative affinity” read -0.413 z-score.
`GACGGTCTCCTTTTCTTGACGTGCTAG` — result for “fitted relative affinity”: 1.34 z-score.
Under “fitted relative affinity”, `TTAGGACTGGGGAGTGGGTTAGTGCTA` is recorded as -0.636 z-score.
`GGCGGTATCGGACTGGGGACGTGCTAG` — result for “fitted relative affinity”: -1.17 z-score.
Under “fitted relative affinity”, `TCATATACCACTCTTGCACTGTGCTAG` is recorded as 1.3 z-score.
Under “fitted relative affinity”, `TTACGTTTCGGACTGGGTTAGTGCTAG` is recorded as 4.61 z-score.
`TCAGGTCTCGGTATCGGTTAGTGCTAG` — result for “fitted relative affinity”: 1.48 z-score.
`AAACTCGTGTTTTTCTCCTAGTGCTAG`: “fitted relative affinity” 1.36 z-score.
For `TCAGTTCTGCTTTGCCTACTGTGCTAG`, “fitted relative affinity” read 2.54 z-score.
Under “fitted relative affinity”, `TTAGAACTGAGTATCAATTAGTGCTAG` is recorded as -0.813 z-score.
Under “fitted relative affinity”, `TTAGAACTGGGGTATCGTTTAGTGCTA` is recorded as 0.159 z-score.
`TTAGGTTTCCTACTACTTTAGTGCTAG`: “fitted relative affinity” 1.2 z-score.
For `GACGGTATCGGTTTCTGGACGTGCTAG`, “fitted relative affinity” read 2.45 z-score.

Series 4
Organism: Saccharomyces cerevisiae
Effect on: binding
Method: competitive growth deep sequencing
Form: peptide
Strain: cyclin D3-Cln2 fusion strain
Concentration: concentration not given
Notes: RxL motif peptides
Direction: direction not given
Under “growth enrichment score”, `PPHRRRLLFACSP` is recorded as -0.141.
`QDYERRLLRQIVI` — result for “growth enrichment score”: 0.201.
`ARYKRKLLINDFG`: “growth enrichment score” 0.222.
Under “growth enrichment score”, `PGASRRLFGSSAD` is recorded as 0.224.
`STTRRRLFVENDS`: “growth enrichment score” 0.212.
For `PKPLKKLRFDIEG`, “growth enrichment score” read 0.339.
`PPVKRRLDLETDH`: “growth enrichment score” -0.0223.
`PSAKRSLGFLPQP`: “growth enrichment score” -0.0289.
For `LPAKRKLDLEGIG`, “growth enrichment score” read 0.216.

A few entries again (series 4):
`QDYERRLLRQIVI` — result for “growth enrichment score”: 0.201.
`ARYKRKLLINDFG`: “growth enrichment score” 0.222.
Under “growth enrichment score”, `PGASRRLFGSSAD` is recorded as 0.224.
`STTRRRLFVENDS`: “growth enrichment score” 0.212.
For `PKPLKKLRFDIEG`, “growth enrichment score” read 0.339.
